Measurements gathered from unrelated publications.
Lines come from different studies, so protocols differ. Numbers after ± are the reported error.
Slc6a3: Sodium-dependent dopamine transporter (Slc6a3, Rattus norvegicus, UniProt P23977)
Chain of UniProt P23977 (whole entry, looked up): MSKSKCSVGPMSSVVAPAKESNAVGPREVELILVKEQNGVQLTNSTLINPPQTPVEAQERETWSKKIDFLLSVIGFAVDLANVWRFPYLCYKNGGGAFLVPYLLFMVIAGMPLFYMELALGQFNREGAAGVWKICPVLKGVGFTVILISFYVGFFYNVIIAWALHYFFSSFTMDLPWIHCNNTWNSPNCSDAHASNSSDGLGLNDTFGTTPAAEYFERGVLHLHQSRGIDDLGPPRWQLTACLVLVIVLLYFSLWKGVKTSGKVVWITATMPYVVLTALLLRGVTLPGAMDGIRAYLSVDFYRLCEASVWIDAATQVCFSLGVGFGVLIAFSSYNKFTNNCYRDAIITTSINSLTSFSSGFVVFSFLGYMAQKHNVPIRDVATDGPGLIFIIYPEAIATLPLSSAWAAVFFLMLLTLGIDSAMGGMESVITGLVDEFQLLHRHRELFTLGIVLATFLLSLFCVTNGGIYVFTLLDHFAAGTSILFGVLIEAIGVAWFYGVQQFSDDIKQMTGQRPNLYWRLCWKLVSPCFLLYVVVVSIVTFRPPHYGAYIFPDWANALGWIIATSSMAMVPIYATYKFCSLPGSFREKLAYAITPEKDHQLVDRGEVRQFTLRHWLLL
slo: slo (Streptococcus pyogenes, UniProt P0C0I3)
Chain of UniProt P0C0I3 (whole entry, looked up): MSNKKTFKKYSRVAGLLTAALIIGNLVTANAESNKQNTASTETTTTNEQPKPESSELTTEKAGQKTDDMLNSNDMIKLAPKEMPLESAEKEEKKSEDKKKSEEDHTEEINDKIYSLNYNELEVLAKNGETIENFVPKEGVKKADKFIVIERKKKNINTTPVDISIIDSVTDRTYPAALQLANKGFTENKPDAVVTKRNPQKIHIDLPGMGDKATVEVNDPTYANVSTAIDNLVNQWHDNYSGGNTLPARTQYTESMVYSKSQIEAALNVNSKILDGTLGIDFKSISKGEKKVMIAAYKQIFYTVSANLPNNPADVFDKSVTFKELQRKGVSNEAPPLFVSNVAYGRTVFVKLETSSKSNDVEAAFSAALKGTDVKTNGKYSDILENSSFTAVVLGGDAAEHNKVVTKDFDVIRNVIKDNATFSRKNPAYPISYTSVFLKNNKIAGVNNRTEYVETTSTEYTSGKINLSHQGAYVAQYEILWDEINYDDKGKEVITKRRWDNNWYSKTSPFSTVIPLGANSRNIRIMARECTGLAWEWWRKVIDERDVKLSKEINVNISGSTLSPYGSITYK
Chain of UniProt P34972 (whole entry, unmodified, looked up): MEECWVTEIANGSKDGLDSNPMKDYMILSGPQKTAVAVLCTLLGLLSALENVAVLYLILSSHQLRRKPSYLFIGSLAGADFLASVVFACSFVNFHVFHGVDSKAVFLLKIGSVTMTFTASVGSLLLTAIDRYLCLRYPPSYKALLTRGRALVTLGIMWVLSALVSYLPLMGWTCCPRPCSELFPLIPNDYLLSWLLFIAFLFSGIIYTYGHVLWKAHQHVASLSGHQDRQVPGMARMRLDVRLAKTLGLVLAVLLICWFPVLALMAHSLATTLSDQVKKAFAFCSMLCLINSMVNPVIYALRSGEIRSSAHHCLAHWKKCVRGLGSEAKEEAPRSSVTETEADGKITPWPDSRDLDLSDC
Chain of UniProt P18177 (whole entry, looked up): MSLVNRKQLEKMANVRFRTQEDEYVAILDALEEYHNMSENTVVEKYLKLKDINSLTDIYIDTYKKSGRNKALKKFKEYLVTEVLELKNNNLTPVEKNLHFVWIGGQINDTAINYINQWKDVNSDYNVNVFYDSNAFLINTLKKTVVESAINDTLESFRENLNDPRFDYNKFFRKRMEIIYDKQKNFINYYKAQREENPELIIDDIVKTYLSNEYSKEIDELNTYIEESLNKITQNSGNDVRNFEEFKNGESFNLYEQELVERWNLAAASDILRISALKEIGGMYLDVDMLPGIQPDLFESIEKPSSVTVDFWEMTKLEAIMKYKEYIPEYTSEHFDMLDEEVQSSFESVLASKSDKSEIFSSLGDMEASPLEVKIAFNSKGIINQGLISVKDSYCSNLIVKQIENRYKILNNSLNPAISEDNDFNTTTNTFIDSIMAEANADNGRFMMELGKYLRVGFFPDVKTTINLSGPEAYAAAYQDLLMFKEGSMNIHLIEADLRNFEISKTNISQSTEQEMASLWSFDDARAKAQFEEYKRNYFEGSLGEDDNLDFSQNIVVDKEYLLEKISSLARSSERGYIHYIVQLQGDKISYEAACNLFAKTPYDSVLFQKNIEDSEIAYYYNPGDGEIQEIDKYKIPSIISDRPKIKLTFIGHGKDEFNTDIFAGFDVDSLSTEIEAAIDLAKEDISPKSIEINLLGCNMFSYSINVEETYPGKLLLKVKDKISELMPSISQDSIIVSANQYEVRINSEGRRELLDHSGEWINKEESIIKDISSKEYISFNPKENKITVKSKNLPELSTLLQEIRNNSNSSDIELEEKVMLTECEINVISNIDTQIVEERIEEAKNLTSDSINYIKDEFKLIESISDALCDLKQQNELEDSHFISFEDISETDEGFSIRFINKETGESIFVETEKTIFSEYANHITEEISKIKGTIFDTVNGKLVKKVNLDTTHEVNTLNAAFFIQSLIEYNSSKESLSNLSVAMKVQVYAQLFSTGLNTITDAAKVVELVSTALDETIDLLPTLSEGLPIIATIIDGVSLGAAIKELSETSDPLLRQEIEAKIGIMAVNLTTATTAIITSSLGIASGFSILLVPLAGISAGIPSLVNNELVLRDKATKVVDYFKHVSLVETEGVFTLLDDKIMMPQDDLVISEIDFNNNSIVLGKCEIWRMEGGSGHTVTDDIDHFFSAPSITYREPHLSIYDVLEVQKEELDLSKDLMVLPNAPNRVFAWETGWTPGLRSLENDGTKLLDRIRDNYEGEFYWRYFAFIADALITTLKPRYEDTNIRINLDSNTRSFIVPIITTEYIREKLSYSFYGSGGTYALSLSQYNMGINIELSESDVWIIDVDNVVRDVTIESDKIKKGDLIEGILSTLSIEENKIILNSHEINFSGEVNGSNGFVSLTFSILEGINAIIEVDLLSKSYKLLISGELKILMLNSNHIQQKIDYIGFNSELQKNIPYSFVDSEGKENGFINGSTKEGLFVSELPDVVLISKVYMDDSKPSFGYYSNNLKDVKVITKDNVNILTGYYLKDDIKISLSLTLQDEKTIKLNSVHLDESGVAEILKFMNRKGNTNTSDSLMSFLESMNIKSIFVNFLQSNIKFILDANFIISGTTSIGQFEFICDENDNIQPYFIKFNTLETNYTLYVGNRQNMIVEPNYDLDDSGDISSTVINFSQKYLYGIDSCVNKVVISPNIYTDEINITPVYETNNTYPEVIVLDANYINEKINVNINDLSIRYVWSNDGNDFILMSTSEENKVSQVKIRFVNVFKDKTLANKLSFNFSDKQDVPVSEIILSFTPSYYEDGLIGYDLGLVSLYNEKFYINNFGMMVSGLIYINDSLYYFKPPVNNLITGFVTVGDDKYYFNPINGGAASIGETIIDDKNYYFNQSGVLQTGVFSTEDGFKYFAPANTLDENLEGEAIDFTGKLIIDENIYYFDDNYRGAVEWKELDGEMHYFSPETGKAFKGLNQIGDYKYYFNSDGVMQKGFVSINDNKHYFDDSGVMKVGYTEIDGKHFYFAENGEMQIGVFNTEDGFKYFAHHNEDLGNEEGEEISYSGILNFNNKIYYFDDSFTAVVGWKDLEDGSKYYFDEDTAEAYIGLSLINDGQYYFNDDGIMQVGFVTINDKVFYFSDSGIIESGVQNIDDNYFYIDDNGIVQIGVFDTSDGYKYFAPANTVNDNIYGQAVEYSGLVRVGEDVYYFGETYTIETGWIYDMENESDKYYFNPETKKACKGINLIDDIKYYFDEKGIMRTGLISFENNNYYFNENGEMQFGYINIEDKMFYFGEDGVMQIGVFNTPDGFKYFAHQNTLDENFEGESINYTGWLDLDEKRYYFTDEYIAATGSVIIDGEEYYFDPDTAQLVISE
Chain of UniProt Q9Y5X5 (whole entry, looked up): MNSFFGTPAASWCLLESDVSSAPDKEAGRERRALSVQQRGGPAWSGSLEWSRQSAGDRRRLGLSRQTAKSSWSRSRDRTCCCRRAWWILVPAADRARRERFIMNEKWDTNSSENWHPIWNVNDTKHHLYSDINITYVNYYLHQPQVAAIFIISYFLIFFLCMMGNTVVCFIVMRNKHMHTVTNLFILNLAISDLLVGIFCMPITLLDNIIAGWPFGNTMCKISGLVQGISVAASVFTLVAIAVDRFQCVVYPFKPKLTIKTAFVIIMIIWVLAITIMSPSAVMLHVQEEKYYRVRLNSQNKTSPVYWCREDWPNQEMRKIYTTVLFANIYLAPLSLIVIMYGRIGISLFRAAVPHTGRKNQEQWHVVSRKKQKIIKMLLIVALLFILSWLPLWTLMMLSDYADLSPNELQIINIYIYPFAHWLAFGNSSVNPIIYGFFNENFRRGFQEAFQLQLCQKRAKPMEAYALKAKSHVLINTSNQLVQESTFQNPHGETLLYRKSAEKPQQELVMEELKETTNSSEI
Chain of UniProt P17706 (whole entry, looked up): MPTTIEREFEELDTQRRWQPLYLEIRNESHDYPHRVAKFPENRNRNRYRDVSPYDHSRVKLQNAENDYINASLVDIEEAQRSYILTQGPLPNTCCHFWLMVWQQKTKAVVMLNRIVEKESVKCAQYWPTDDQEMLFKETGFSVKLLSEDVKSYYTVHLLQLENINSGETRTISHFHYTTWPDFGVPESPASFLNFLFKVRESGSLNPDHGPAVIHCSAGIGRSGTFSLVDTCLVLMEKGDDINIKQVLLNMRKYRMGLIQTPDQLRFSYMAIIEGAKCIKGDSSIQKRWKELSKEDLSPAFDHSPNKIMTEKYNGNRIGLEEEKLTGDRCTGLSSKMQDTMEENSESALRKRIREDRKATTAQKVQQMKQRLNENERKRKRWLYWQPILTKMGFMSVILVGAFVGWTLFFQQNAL
Chain of UniProt P40337 (whole entry, looked up): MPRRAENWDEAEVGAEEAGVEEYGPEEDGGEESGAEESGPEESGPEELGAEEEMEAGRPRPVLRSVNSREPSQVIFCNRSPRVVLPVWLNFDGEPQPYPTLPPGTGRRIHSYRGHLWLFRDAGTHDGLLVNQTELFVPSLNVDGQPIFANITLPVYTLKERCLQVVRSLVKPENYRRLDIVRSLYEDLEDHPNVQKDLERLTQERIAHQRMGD

CCCCCc1cc(O)c2c(c1)OC(C)(C)C1=C2[C@@H](O)[C@@](C)(O)CC1
Ki (Si (Rattus norvegicus, UniProt P23739); enzyme activity, inhibitor): 305000 nM

CCCCCn1cc(C(=O)c2cccc3c2CC(C)(C)C3)c2ccccc21
EC50 (CNR2 (Homo sapiens, UniProt P34972, L182I); G protein activation, agonist, BRET): 0.447 nM

CCC[C@H](C(=O)c1ccccc1)N1CCCC1
IC50 (Slc6a3; transporter uptake, inhibitor, radiometric): 307 nM

CCOC(=O)C1C(OC(c2ccc(Cl)cc2)c2ccc(Cl)cc2)CC2CCC1N2C (single isomer, unassigned)
Ki (CHRM2 (Homo sapiens, UniProt P08172); ligand displacement, radioligand): 3120 nM

CC1=CC(C)=[N+]2C1=Cc1ccc(CCC(=O)NCCOCCOCCOCCOCC(=O)N[C@H](C(=O)N3C[C@H](O)C[C@H]3C(=O)NCc3ccc(-c4scnc4C)cc3)C(C)(C)C)n1[B-]2(F)F
Kd (von Hippel-Lindau disease tumor suppressor, with elongin B/C (VHL, Homo sapiens, UniProt P40337); binding, TR-FRET; 60 min, together with: BODIPY FL VH032): 3.22 nM

CNC(C)C(=O)c1ccc(OC(F)(F)F)cc1 (stereo not shown)
EC50 (Slc6a3; dopamine release, releaser; rat brain synaptosomes; together with: [3H]dopamine): > 4000 nM

Cc1ccccc1N1C(=O)/C(=C/c2ccc(OCc3cccc(C(=O)O)c3)cc2)C(=O)NC1=S
IC50 (PTPN2 (Homo sapiens, UniProt P17706); enzyme activity, inhibitor): 1520 nM

CCCCCc1cc(O)c2c(c1)OC(C)(C)C1CCC(C)=CC21 (single isomer, unassigned; (-))
Ki (Cytochrome P450 1A2 (CYP1A2, Homo sapiens, UniProt P05177); enzyme activity, inhibitor; human liver microsomes; pH 7.4, unbound, fu,inc corrected, together with: phenacetin): 100 ± 56 nM

CC(=O)NC1C(OC2C(O)C(O)OC(CO)C2O)OC(CO)C(O)C1OC1OC(CO)C(O)C(O)C1OC1OC(C)C(O)C(O)C1O (stereo not shown)
Kd (slo; binding): 2600 nM

CCCCCn1cc(C(=O)c2ccc3ccccc3c2)c2ccccc21
EC50 (CNR2 (Homo sapiens, UniProt P34972, I110L); G protein activation, agonist, BRET): 49 nM

CC(=O)NC1C(O)CC(OC2C(O)C(CO)OC(OC3C(O)C(CO)OC(O)C3NC(C)=O)C2O)(C(=O)O)OC1C(O)C(O)CO (stereo not shown)
Kd (slo; binding): 1400 nM

OP(O)(=S)O[C@H]1[C@H](OP(O)(O)=S)[C@@H](OP(O)(O)=S)[C@H](OP(O)(O)=S)[C@@H](OP(O)(O)=S)[C@H]1OP(O)(O)=S
Kd (Toxin B (tcdB, Clostridioides difficile, UniProt P18177); binding, ITC): 413 nM

CCCCCCCCCC(=O)N[C@@H](CCCNC(=N)N)C(=O)N[C@H](C(=O)N[C@@H](CCCCN)C(=O)N[C@@H](CCCNC(=N)N)C(=O)CCl)C(C)C
EC50 (Proprotein convertase subtilisin/kexin type 4 (Pcsk4, Mus musculus, UniProt P29121); biochemical): 70 nM

CCC[N+](C)(C)CCc1c[nH]c2cccc(O)c12
Ki (SLC6A4 (Homo sapiens, UniProt P31645); ligand displacement, radioligand): 890 nM

CC(=O)NC1C(OC2C(O)C(CO)OC(OC3C(O)C(CO)OC(OC4C(O)C(O)OC(CO)C4O)C3NC(C)=O)C2OC2OC(C)C(O)C(O)C2O)OC(CO)C(O)C1O (stereo not shown)
Kd (slo; binding): 105 nM

N=C(N)NCCCCC(=O)NCC1(Nc2ccccc2)CCN(Cc2ccccc2)CC1
Ki (Neuropeptide FF receptor 2 (Homo sapiens, UniProt Q9Y5X5); cell-free assay): 2220 nM

Excerpt of the above:
CC(=O)NC1C(OC2C(O)C(O)OC(CO)C2O)OC(CO)C(O)C1OC1OC(CO)C(O)C(O)C1OC1OC(C)C(O)C(O)C1O (stereo not shown)
Kd (slo; binding): 2600 nM

CCCCCn1cc(C(=O)c2ccc3ccccc3c2)c2ccccc21
EC50 (CNR2 (Homo sapiens, UniProt P34972, I110L); G protein activation, agonist, BRET): 49 nM
